Results of several laboratories.
Rhomboid protease AarA: Rhomboid protease AarA (Providencia stuartii, UniProt P46116)
Chain of UniProt P46116 (whole entry, looked up): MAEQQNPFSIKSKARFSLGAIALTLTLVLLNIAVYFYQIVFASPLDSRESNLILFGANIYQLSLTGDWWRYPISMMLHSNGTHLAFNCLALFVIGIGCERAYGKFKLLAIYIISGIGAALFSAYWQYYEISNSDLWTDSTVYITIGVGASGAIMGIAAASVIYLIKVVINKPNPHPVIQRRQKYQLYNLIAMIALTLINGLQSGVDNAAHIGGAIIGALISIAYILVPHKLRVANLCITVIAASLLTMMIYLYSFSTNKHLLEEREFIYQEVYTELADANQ
GSK3A: Glycogen synthase kinase-3 alpha (GSK3A, Homo sapiens, UniProt P49840)
Chain of UniProt P49840 (whole entry, looked up): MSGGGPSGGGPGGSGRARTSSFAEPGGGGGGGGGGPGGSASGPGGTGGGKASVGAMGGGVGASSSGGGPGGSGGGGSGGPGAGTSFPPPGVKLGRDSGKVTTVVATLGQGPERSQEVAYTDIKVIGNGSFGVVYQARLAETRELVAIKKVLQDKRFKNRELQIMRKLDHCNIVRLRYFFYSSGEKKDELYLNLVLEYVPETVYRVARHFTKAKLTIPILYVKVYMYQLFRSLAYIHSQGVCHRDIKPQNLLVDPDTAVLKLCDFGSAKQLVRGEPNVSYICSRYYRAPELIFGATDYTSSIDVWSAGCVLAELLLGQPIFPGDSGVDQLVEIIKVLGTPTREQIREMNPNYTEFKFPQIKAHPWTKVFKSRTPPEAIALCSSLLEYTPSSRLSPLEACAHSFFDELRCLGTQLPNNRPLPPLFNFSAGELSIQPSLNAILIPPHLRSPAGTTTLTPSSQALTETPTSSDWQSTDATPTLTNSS
PPARG: Peroxisome proliferator-activated receptor gamma (PPARG, Homo sapiens, UniProt P37231)
Chain of UniProt P37231 (whole entry, looked up): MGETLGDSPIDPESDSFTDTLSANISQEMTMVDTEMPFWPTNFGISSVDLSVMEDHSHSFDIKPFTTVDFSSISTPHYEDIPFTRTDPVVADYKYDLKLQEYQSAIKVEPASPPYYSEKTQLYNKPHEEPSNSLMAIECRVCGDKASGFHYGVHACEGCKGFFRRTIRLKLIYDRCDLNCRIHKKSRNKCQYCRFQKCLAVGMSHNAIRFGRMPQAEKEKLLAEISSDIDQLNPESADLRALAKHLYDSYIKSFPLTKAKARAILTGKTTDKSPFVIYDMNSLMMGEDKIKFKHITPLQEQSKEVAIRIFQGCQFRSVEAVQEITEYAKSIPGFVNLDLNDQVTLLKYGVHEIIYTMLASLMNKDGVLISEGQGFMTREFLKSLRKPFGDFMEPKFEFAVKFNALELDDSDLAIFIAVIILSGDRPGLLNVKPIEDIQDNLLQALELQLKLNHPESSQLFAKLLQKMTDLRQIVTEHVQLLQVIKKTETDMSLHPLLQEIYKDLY
Chain of UniProt Q9HCP0 (whole entry, looked up): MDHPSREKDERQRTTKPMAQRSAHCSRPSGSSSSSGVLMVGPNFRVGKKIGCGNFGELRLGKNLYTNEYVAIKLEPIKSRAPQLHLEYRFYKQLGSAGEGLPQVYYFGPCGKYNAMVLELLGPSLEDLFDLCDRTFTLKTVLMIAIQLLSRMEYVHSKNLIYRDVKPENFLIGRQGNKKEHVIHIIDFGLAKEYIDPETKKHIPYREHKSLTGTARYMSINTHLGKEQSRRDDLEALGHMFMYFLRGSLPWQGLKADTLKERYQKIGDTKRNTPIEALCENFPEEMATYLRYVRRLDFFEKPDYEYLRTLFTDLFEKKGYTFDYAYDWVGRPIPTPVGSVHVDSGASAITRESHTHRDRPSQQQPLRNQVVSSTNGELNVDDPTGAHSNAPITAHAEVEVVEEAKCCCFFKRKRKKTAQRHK
Chain of UniProt Q13547 (whole entry, looked up): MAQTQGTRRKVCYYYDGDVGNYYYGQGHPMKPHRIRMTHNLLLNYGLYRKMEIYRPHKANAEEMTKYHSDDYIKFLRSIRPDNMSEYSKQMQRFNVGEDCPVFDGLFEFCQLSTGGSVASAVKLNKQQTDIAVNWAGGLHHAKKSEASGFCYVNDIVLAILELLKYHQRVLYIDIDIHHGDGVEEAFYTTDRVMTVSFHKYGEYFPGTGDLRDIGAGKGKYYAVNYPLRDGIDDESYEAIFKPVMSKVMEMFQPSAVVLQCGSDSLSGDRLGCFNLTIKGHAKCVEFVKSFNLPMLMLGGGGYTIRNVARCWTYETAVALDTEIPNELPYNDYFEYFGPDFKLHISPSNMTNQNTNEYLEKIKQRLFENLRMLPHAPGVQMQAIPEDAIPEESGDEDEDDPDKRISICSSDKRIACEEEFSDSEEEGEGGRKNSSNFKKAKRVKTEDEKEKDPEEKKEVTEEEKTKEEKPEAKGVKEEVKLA

Structure (SMILES)	tested on	test	system	conditions	how to read	quantity	value
Cc1nn(-c2cccc(N)c2)c(=O)c2cnc(Nc3ccc(N4CCNCC4)cc3)nc12	CSNK1G1 (Homo sapiens, UniProt Q9HCP0)	enzyme activity, inhibitor	–	–	–	IC50	> 10 µM
O=C(NCC1CCOCC1)c1ccccc1NC(=O)C(C(F)(F)F)C(F)(F)F	Rhomboid protease AarA	enzyme activity, inhibitor, fluorescence	–	–	–	IC50	13 µM
COc1ccc(O)c(C(=O)c2cnn(-c3oc(C)nc3C#N)c2)c1	Plasmodium falciparum	parasite growth, parasite lactate dehydrogenase	NF54	–	–	IC50	> 6 µM
C=C(NC(=O)c1csc(-c2nc3c(cc2O)-c2nc(cs2)C(=O)NC(C(C)O)C(=O)NC(=C(C)OC)c2nc(cs2)C(=O)NC2c4nc(cs4)C(=O)NC(COC(=O)c4c5c6c(cccc6n4O)COC(=O)C(OC4CC(C)(O)C(N(C)C)C(C)O4)C2OC5)c2nc-3cs2)n1)C(N)=O (stereo not drawn)	–	–	Sprague-Dawley rat, male, plasma	intravenous infusion, 6 mg/kg, multiple doses, day 7	–	Vz/F	40.3 L/kg
Cc1cc(C)c(S(=O)(=O)N(CC(=O)O)c2ccc(Nc3ccnc(N4CCCC4)n3)cc2)c(C)c1	GSK3A	enzyme activity, inhibitor	–	–	–	IC50	> 100 µM
COC1CN([C@H]2CC[C@H]([C@@]3(C)Oc4c(Cl)cc(C(=O)NCc5c(SC)cc(C)[nH]c5=O)c(C)c4O3)CC2)C1	–	RNA-seq, refers to: PHF13 mouse homolog	mouse, HT-1376 xenograft, whole blood	dose not given	reference: vehicle	log2 fold change	0.231
O=C(NCC1CCOCC1)c1n[nH]cc1NC(=O)c1c(F)cccc1F	GSK3A	target engagement in cells, BRET	–	–	–	IC50	0.0046 µM
Cc1c(Cc2ccc(Cl)c(OC(C)C(=O)O)c2)c2ccc(C(=O)NCc3ccc(C(C)(C)C)cc3)cc2n1CC(C)C (stereo not drawn)	Peroxisome proliferator-activated receptor gamma, ligand-binding domain (PPARG, Homo sapiens, UniProt P37231)	reporter gene, luciferase reporter	HEK293T, Gal4-PPARγ LBD	–	–	IC50	6 µM
C=CC(=O)Nc1cccc(Cn2ncc3cnc(Nc4cnn(CCOC)c4)nc32)c1	NEK1 human	binding, KINOMEscan	–	100 nM	lower = stronger binding	percent of control	100%
O=C1CCN1C(=O)NCc1ccccc1	Rhomboid protease AarA	enzyme activity, inhibitor, fluorescence	–	–	–	IC50	76 µM
Cc1c(Cc2cccc(OC(C)C(=O)O)c2)c2ccc(C(=O)NC(C)c3ccc(C(C)(C)C)cc3)cc2n1C (mixture of isomers)	PPARG	ligand displacement, TR-FRET	–	–	–	IC50	0.119 µM
O=C(Nc1ccc(F)cc1)NC1CCN(c2ncnc3nc[nH]c23)C1 (stereo not drawn)	Plasmodium falciparum	parasite growth, parasite lactate dehydrogenase	NF54	–	–	IC50	> 6 µM
COC(=O)CCCCCNC(=O)c1ccc(Nc2ncc(F)c(-c3cc(F)c4nc(C)n(C(C)C)c4c3)n2)cc1	HDAC1 (Homo sapiens, UniProt Q13547)	enzyme activity, inhibitor	–	–	–	IC50	> 1 µM
O=C(Nc1ccccc1C(=O)N1CCCC1)C(C(F)(F)F)C(F)(F)F	Rhomboid protease AarA	enzyme activity, inhibitor, fluorescence	–	–	–	IC50	18 µM
Cc1c(Cc2cccc(OC(C)(C)C(=O)O)c2)c2ccc(C(=O)N[C@@H](C)c3cccc(C4CC4)c3)cc2n1C	PPARG	ligand displacement, TR-FRET	–	–	–	IC50	0.005 µM
O=C(NCc1ccccc1)C(C(F)(F)F)C(F)(F)F	Rhomboid protease AarA	enzyme activity, inhibitor, fluorescence	–	–	–	IC50	20 µM
Cc1c(Cc2ccc(Cl)c(O[C@@H](C)C(=O)O)c2)c2ccc(C(=O)N[C@@H](C)c3cc(F)cc(C(C)(C)C)c3)cc2n1C	PPARG	ligand displacement, TR-FRET	–	–	–	IC50	0.00511 µM
Nc1ncc(-c2cc(-c3cnn(CC(F)(F)F)c3)ncc2F)nc1C(=O)NC1CNCC(F)C1 (stereo not drawn)	PIK4CB	KINOMEscan	–	1 µM	reference: DMSO control	remaining binding	100%
